Results pooled from the literature.
Each line is one published result; not all experiments were run side by side. Numbers after ± are the reported error.
Method: steady-state kinetics
B1: iodotyrosine deiodinase (Haliscomenobacter hydrossis, UniProt F4KU78); chain MKQKPAFIPYAGAQFEPEEMLSKSAEYYQFMDHRRTVREFSNRAIPLEVIENIVMTASTAPSGAHKQPWTFVVVSDPQIKAKIRQAAEKEEFESYNGRMSNEWLEDLQPFGTDWHKPFLEIAPYLIVVFRKAYDVLPDGTQRKNYYVQESVGIACGFLLAAIHQAGLVALTHTPSPMNFLQKILQRPENERPFLLVPVGYPAEGAMVPDLQRKDKAAVMVVY
B2: enzyme (Thermobifida fusca, UniProt Q47RK4); chain MTDVYILDAVRTPFGRYGGALSGIRPDDLAAHVLRALAERSPGLDPAAVDDVFFGDANGAGEDNRNVARMAALLAGWPTSVPGVTLNRLCGSGMESVIAANRAIAVGDASLAVAGGVESMSRAPWVLPKPAQGFPTGHETLYSTTLGWRMVNPAMPEQWTVSLGESTEQVAATYGISRAEQDAFALRSHERAARAWAEGVFDAEITQIPGAELERDESIRETSAEKLAALKPAFRPDGTITAGNASPLNDGAAALLIGDAAAAERVGREPLARIVSRGVAAVDPDVFGIGPVQAAEIALRRAGIGWDDLSVVELNEAFAAQSLACLKLWPDLDPEIVNPNGGAIAIGHPLGASGARIVGTLAHELHRRGGGWGLAAICIGVGQGLAVVLHR
B3: enzyme I209A (Thermococcus kodakarensis, UniProt Q5JID5); chain MLYVEILGNLPEMARDEVKAMLELGGGEIIGQDYLFLKVDAGEKAFPFLDRLGLAHEYGLLLVEADSVEELLQKAGEVEWPIKGAFKVDTETMANCRHDVLDLPRKLGAVIHAQGFRVNLSKPDTVVRVYCGERLYAGIRLRYFDPKDFEKRKAHHRPFFRPISLHPRVSRALVNLTKATREILDPFMGAGGILIEAGLLGLRVYGVDARPEMVEGAETNLKHYGVRDYTLKLGDATRLEDLFPDKKFEAVATDPPYGTAATLAGRKRDELYRKALRSIYNVLEDGGRLAIAFPTDFNGKAEAEAVGFRTLGRYYQRVHKSLERYFYVFEK
B4: protein (UniProt A0A4Y6I1D9); chain MTLDEKPRKFDGLDIEGVAFAASVTALGAAKPLALGGAGDRGLEINGNYIKFTAIGIYVEDGIIPHLSPKLRGKTVEELCEKELLFEEVISAPFEKLVRVVFLVPLTGIQYSEKVLERISVQSLFTDIKEEHKQQFLEIFKGESFPPRSSVILSFSKEGLKVAFAKGDDVPSKAVGTIEDATFADAVLATIIWKEGVSPAAKVSLAERLSKCL
B5: HCT R356D (Coleus scutellarioides, UniProt E8ZAP2); chain MKIHVRDSTLVRPSAATPAVSLWNSNVDLVVPNFHTPSVYFYRPSGADNFFDTAVMKAALGRALVSFYPMAGRLKRDEDGRVEIDCNAEGVLFVEAESDGTVDDYGDFAPSLELRRLIPAVDYSQGISAYPLLVLQVTFFKCGGVSLGVGMQHHAADGFSGLHFINTWSDMARGLDITLPPFIDRTLLSARDPPQPQFKHVEYQPPPAMKTYEPAETVVSIFKLTKDQLTTLKAKSKEDGNTTTYSSYEMLSGHVWRCTCLARGLPEEQETKLYIATDGRSRLQPQLPPGYFGNVIFTATPLAVAGDLGSKPVWYAASKIHDALARMDNDYLRSALDFLELQPDLKALVRGAHTFDCPNLGITSWVRLPIHDADFGWGRPIFMGPGGIAYEGLSFVLPSPTNDGSLSVAISLQAEHMKLFEKLLYQI
B6: asnB E349D (Escherichia coli, UniProt P22106); chain CSIFGVFDIKTDAVELRKKALELSRLMRHRGPDWSGIYASDNAILAHERLSIVDVNAGAQPLYNQQKTHVLAVNGEIYNHQALRAEYGDRYQFQTGSDCEVILALYQEKGPEFLDDLQGMFAFALYDSEKDAYLIGRDHLGIIPLYMGYDEHGQLYVASEMKALVPVCRTIKEFPAGSYLWSQDGEIRSYYHRDWFDYDAVKDNVTDKNELRQALEDSVKSHLMSDVPYGVLLSGGLDSSIISAITKKYAARRVEDQERSEAWWPQLHSFAVGLPGSPDLKAAQEVANHLGTVHHEIHFTVQEGLDAIRDVIYHIETYDVTTIRASTPMYLMSRKIKAMGIKMVLSGDGSDEVFGGYLYFHKAPNAKELHEETVRKLLALHMYDCARANKAMSAWGVEARVPFLDKKFLDVAMRINPQDKMCGNGKMEKHILRECFEAYLPASVAWRQKEQFSDGVGYSWIDTLKEVAAQQVSDQQLETARFRFPYNTPTSKEAYLYREIFEELFPLPSAAECVPGGPSVACSSAKAIEWDEAFKKMDDPSGRAVGVHQSAYK
B7: CPT1 (Solanum lycopersicum, UniProt C1K5M2); chain SLNLQTEKLCYEDNDNDLDEELMPKHIALIMDGNRRWAKDKGLEVYEGHKHIIPKLKEICDISSKLGIQIITAFAFSTENWKRSKEEVDFLLQMFEEIYDEFSRSGVRVSIIGCKSDLPMTLQKCIALTEETTKGNKGLHLVIALNYGGYYDILQATKSIVNKAMNGLLDVEDINKNLFDQELESKCPNPDLLIRTGGEQRVSNFLLWQLAYTEFYFTNTLFPDFGEEDLKEAIMNFQQRHRRFGGHTY
B8: protein (Streptomyces sp. NRRL 30471, UniProt F2WUC8); chain MVRADYRTPEVNDVVRYRYGAAETALLKNRISEFGFTMAEVPGECAPQTEIERLGKALGLGEPYVAALYQRGDTRAHGALYTDVRSRAHNTHPGFGTTEGQTIHVDGLLEPIGTIRTTILFCVRPAVSGGRTVLFNSSAAFETLRHSDPAAAESLRDPGVLRRRSTLPNVDAGHTGPAFAYDNGLLITRYSEGPTVEWNAPPGRSAELERALNFLRAAAEDKRYSIALRLGAGEALIFRNDVISHGREAYRDDPAAPRHLIRTLYLESP
B9: enzyme H284A (Daphnia magna, UniProt A0A0A7CK57); chain MVDAAVAEKLEAGFQKLQEATNCKSLLKKHLTREIFDKIKDLKTSFGSTLLDVIQSGVENLDSGFGVYAPDAEAYSVFNDLFEPMICDYHTGFKPGDAHPPRDFGDLETFGNLDPEGAFIVSTRVRCGRSLAGYAFNPCLTEANYKEMEEKVVASLSSLEGELKGTYYPLTGMTKEVQTQLIQDRFLFKEGDRFLQAANACRYWPTGRGIYHNDAKTFLVWCNEEDHLRIISMQKGGDLKAVYARLVNAINEIEKRIPFSHHDKYGFLTFCPTNLGTTIRASVAIALPKLAADLAKLEEAAGKFNLQVRGTAGEHTEAEGGVYDISNKRRMGLTEYQAVKEMYDGLQELIRMEKEAA
B10: enzyme (Bacillus pumilus, UniProt A8FFI9); chain EARSIAWSVDEFFKNREGTFVIQEVKEKSPWVYNKKRAKERFAPQSTFKVANALIGLQTGAVRDEYDIKYWDGVKREIDNWNRDHTLGSGMRDSVVWYYQAMARDIGEERMNHWVKAIHYGNKDISGGIDQFWLSSTLRISPIEQVRFLKQLYEETLPFDLKNMRTVKRMMVQEEEKHATLYGKTGSGSDIGWYVGFIKHEHKTYILATNIKGTGIEAKDITYRILKKYHLMEASV
B11: GTPBP3 P257H (Homo sapiens, UniProt Q969Y2); chain TRRSSGAPAPGSGATIFALSSGQGRCGIAVIRTSGPASGHALRILTAPRDLPLARHASLRLLSDPRSGEPLDRALVLWFPGPQSFTGEDCVEFHVHGGPAVVSGVLQALGSVPGLRPAEAGEFTRRAFANGKLNLTEVEGLADLIHAETEAQRRQALRQLDGELGHLCRGWAETLTKALAHVEAYIDFGEDDNLEEGVLEQADIEVRALQVALGAHLRDARRGQRLRSGVHVVVTGHPNAGKSSLVNLLSRKPVSIVSPEPGTTRDVLETPVDLAGFPVLLSDTAGLREGVGPVEQEGVRRARERLEQADLILAMLDASDLASPSSCNFLATVVASVGAQSPSDSSQRLLLVLNKSDLLSPEGPGPGPDLPPHLLLSCLTGEGLDGLLEALRKELAAVCGDPSTDPPLLTRARHQHHLQGCLDALGHYKQSKDLALAAEALRVARGHLTRLTGGGGTEEILDIIFQDFCVGK
B12: cyc1 F95H (Streptomyces coelicolor, UniProt Q9K499); chain MHAFPHGTTATPTAIAVPPSLRLPVIEAAFPRQLHPYWPKLQETTRTWLLEKRLMPADKVEEYADGLCYTDLMAGYYLGAPDEVLQAIADYSAWHFVWDDRHDRDIVHGRAGAWRRLRGLLHTALDSPGDHLHHEDTLVAGFADSVRRLYAFLPATWNARFARHFHTVIEAYDREFHNRTRGIVPGVEEYLELRRLTFAHWIWTDLLEPSSGCELPDAVRKHPAYRRAALLSQEFAAWYNDLCSLPKEIAGDEVHNLGISLITHHSLTLEEAIGEVRRRVEECITEFLAVERDALRFADELADGTVRGKELSGAVRANVGNMRNWFSSVYWFHHESGRYMVDSWDDRSTPPYVNNEAAGEK
B13: CstB (Staphylococcus aureus, UniProt G5ELA4); chain MFFKQFYDNHLSQASYLVGCQRTGEAIIIDPVRDLSKYIEVADSEGLTITQATETHIHADFASGIRDVAKRLNANIYVSGEGEDALGYKNMPSKTQFVKHGDIIQVGNVKLEVLHTPGHTPESISFLLTDLGGGSSVPMGLFSGDFIFVGDIGRPDLLEKSVQIKGSTEISAKQMYESVQNIKNLPDYVQIWPGHGAGSPCGKALGAIPISTIGYEKINNWAFNEIDETKFIESLTSNQPAPPHHFAQMKQVNQFGMNLYQSYDVYPSLDNKRVAFDLRSKEAFHGGHTKGTINIPYNKNFINQIGWYLDFEKDIDLIGDKSTVEKAKHTLQLIGFDKVAGYRLPKSGISTQSVHSADMTGKEEHVLDVRNDEEWNNGHLDQAVNIPHGKLLNENIPFNKEDKIYVHCQSGVRSSIAVGILESKGFENVVNIREGYQDFPESLK
Chain of UniProt Q59931 (whole entry, looked up): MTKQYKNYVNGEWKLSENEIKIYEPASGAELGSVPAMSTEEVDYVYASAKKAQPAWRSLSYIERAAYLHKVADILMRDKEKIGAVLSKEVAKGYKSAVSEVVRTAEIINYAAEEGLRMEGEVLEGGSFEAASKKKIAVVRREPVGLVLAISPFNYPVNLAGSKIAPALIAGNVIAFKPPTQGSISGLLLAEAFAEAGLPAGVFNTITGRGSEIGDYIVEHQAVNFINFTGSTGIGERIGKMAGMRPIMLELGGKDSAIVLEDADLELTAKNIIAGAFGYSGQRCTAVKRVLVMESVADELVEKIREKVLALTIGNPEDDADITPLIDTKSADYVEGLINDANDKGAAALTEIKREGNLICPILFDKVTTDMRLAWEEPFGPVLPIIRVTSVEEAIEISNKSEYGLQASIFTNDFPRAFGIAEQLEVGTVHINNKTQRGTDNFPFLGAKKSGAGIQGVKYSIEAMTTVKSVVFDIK
Chain of UniProt Q8QZR1 (whole entry, looked up): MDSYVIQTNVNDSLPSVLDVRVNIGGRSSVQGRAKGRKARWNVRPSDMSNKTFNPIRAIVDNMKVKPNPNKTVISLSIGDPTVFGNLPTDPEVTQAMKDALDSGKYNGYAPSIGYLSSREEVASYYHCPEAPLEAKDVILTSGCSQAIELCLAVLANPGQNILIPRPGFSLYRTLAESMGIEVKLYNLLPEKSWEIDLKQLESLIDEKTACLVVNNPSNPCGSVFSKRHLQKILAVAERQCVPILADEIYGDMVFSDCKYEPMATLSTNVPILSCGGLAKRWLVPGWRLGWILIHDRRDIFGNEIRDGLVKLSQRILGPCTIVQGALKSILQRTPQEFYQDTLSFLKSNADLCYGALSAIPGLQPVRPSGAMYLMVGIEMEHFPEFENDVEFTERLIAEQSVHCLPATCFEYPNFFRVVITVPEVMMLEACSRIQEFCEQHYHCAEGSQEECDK

B1 (iodotyrosine deiodinase)  kcat (COc1cc(C[C@H](N)C(=O)O)cc(I)c1O; pH 7.4, 25 °C): 1.4 ± 0.15 s⁻¹
B2 (enzyme)  kcat (CC(C)(COP(=O)(O)OP(=O)(O)OC[C@H]1O[C@@H](n2cnc3c(N)ncnc32)[C@H](O)[C@@H]1OP(=O)(O)O)[C@@H](O)C(=O)NCCC(=O)NCCSC(=O)CC(=O)O; pH 7.4, 37 °C): 0.00317 ± 8e-05 s⁻¹
gapN (Streptococcus mutans, UniProt Q59931)  kcat (NC(=O)c1ccc[n+]([C@@H]2O[C@H](COP(=O)(O)OP(=O)(O)OC[C@H]3O[C@@H](n4cnc5c(N)ncnc54)[C@H](OP(=O)(O)O)[C@@H]3O)[C@@H](O)[C@H]2O)c1; pH 8, racemic G3P, cofactor varied, together with: NADP+): 22 ± 2 s⁻¹
B3 (enzyme I209A)  kcat (C[S+](CC[C@H](N)C(=O)O)C[C@H]1O[C@@H](n2cnc3c(N)ncnc32)[C@H](O)[C@@H]1O; pH 7.5, 50 °C, apparent): 0.00333 ± 0.000667 s⁻¹
B4 (protein)  kcat (O=C(/C=C/c1ccc(O)cc1)c1c(O)cc(O)cc1O): 155 ± 11.8 s⁻¹
B5 (HCT R356D)  kcat (NCc1ccc(O)c(O)c1; pH 8, pseudo-first-order, together with: p-coumaroyl CoA): 27.7 ± 1.1 s⁻¹
B6 (asnB E349D)  kcat (N[C@@H](CC(=O)O)C(=O)O; pH 8, 37 °C, apparent, together with: L-glutamine 20 mM): 0.45 ± 0.01 s⁻¹
B7 (CPT1)  kcat (C=C(C)CCO[P@@](=O)(O)OP(=O)(O)O): 0.111 ± 0.023 s⁻¹
B8 (protein)  kcat (O=c1ccn([C@@H]2O[C@H](COP(=O)(O)O)[C@@H](O)[C@H]2O)c(=O)[nH]1; pH 7.5, 30 °C, together with: αKG 2 mM, ascorbic acid 2 mM, FeCl2 0.4 mM): 4.4 ± 0.3 s⁻¹
B9 (enzyme H284A)  kcat (N=C(N)NCCC[C@H](N)C(=O)O; pH 8.5): 0.19 ± 0.02 s⁻¹
B10 (enzyme)  kcat (C[C@H]1[C@H](NC(=O)/C(=N\OC(C)(C)C(=O)O)c2csc(N)n2)C(=O)N1S(=O)(=O)O; pH 7): 0.51 ± 0.02 s⁻¹
Tat (Mus musculus, UniProt Q8QZR1)  kcat (CCCCC(=O)C(=O)O; pH 7, 38 °C, together with: PLP): 1.83 ± 0.5 s⁻¹
B11 (GTPBP3 P257H)  kcat (Nc1nc2c(ncn2[C@@H]2O[C@H](COP(=O)(O)OP(=O)(O)OP(=O)(O)O)[C@@H](O)[C@H]2O)c(=O)[nH]1; pH 8, 37 °C, KCl 300 mM): 0.00817 ± 0.00117 s⁻¹
B12 (cyc1 F95H)  kcat (CC(C)=CCC/C(C)=C/CC/C(C)=C/CO[P@@](=O)(O)OP(=O)(O)O; pH 6.5, 30 °C, together with: MgCl2 10 mM): 0.00172 ± 2e-05 s⁻¹
MCM2-7 (Drosophila melanogaster)  kcat (Nc1ncnc2c1ncn2[C@@H]1O[C@H](COP(=O)(O)OP(=O)(O)OP(=O)(O)O)[C@@H](O)[C@H]1O; pH 7.6, 30 °C, no DNA, together with: ATP 0.03 µM-3 mM, magnesium acetate 10 mM): 0.0112 ± 0.00117 s⁻¹
B13 (CstB)  kcat (N[C@@H](CSS)C(=O)N[C@H]1[C@@H](O[C@@H](CC(=O)O)C(=O)O)O[C@H](CO)[C@@H](O)[C@@H]1O; pH 6, 25 °C, NaBr 100 mM, air-saturated, together with: Fe(II), O2): 19.7 ± 2.5 s⁻¹
enzyme (Brachypodium distachyon, UniProt I1HY48)  kcat (NC(=O)C1=CN([C@@H]2O[C@H](COP(=O)(O)OP(=O)(O)OC[C@H]3O[C@@H](n4cnc5c(N)ncnc54)[C@H](OP(=O)(O)O)[C@@H]3O)[C@@H](O)[C@H]2O)C=CC1; pH 6.25, 23 °C, cofactor varied): 38.2 s⁻¹

A few entries again:
B3 (enzyme I209A)  kcat (C[S+](CC[C@H](N)C(=O)O)C[C@H]1O[C@@H](n2cnc3c(N)ncnc32)[C@H](O)[C@@H]1O; pH 7.5, 50 °C, apparent): 0.00333 ± 0.000667 s⁻¹
